Published values collected from several papers.
Lines come from different studies, so protocols differ. Numbers after ± are the reported error.
DRD2: D(2) dopamine receptor (DRD2, Homo sapiens, UniProt P14416)
UniProt P14416, sequence (whole entry, looked up): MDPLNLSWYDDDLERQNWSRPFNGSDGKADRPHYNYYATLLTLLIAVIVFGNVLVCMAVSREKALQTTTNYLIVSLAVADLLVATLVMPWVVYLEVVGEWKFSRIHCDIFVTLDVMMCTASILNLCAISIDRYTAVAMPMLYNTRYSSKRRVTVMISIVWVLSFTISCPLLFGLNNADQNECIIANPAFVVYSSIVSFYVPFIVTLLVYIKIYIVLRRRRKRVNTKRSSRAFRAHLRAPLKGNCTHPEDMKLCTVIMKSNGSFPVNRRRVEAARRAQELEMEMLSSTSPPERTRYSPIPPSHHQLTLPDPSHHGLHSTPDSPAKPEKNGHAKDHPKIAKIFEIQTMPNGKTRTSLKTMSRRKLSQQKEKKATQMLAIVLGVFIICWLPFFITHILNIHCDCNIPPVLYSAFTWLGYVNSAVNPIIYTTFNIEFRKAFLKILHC
CSNK1E: Casein kinase I isoform epsilon (CSNK1E, Homo sapiens, UniProt P49674)
UniProt P49674, sequence (whole entry, looked up): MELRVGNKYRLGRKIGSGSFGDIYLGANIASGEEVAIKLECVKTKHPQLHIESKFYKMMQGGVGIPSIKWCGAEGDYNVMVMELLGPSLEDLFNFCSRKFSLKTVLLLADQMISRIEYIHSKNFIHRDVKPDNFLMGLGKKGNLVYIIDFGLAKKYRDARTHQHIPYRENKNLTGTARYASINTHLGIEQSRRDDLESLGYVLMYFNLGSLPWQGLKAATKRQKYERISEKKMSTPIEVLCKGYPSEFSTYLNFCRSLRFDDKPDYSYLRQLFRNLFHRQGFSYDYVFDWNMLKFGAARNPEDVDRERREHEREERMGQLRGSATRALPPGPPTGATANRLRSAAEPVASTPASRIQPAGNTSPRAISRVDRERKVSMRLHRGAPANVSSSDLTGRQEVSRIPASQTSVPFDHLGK
UniProt P29317, sequence (whole entry, looked up): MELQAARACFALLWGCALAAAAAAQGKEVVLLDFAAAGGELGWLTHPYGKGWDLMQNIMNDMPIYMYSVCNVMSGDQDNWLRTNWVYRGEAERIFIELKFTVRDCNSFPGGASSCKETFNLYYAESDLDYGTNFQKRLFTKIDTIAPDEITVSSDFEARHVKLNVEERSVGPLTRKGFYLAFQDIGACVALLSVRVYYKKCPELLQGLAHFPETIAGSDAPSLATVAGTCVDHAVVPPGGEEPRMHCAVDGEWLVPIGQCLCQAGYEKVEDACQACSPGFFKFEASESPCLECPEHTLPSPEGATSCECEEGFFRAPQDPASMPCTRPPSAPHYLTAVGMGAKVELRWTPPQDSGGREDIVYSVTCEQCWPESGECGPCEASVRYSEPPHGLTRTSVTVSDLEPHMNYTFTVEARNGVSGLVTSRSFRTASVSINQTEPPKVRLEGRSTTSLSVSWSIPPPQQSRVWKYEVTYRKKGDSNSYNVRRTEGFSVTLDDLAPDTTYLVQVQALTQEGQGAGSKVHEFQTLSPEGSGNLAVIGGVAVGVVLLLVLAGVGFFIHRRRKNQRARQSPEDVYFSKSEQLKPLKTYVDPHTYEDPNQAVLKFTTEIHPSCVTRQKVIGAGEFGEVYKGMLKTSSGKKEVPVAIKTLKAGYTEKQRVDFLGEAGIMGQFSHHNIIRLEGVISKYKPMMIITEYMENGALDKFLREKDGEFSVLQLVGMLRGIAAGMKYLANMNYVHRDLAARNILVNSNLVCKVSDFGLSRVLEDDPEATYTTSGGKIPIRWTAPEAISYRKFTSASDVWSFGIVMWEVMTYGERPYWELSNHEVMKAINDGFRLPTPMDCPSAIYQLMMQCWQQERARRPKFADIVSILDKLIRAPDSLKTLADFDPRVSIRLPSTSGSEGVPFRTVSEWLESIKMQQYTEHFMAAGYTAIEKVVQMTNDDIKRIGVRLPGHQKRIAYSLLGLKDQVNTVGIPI
UniProt P35354, sequence (whole entry, looked up): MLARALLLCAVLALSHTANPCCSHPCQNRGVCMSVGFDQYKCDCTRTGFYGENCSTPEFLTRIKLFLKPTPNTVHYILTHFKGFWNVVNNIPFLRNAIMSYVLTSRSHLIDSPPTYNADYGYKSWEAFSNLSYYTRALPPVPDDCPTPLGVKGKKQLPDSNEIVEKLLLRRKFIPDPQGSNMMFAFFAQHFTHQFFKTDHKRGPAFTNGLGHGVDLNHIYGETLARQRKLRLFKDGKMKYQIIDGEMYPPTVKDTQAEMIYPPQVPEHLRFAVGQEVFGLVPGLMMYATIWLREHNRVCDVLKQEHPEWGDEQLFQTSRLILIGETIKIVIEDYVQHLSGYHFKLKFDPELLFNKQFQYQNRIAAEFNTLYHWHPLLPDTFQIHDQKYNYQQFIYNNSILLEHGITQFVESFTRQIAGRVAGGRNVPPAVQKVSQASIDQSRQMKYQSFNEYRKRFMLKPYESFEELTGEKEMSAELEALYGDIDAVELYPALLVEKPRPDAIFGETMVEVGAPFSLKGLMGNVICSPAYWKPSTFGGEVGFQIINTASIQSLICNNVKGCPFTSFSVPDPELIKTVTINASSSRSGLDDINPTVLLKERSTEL
UniProt Q8N884, sequence (whole entry, looked up): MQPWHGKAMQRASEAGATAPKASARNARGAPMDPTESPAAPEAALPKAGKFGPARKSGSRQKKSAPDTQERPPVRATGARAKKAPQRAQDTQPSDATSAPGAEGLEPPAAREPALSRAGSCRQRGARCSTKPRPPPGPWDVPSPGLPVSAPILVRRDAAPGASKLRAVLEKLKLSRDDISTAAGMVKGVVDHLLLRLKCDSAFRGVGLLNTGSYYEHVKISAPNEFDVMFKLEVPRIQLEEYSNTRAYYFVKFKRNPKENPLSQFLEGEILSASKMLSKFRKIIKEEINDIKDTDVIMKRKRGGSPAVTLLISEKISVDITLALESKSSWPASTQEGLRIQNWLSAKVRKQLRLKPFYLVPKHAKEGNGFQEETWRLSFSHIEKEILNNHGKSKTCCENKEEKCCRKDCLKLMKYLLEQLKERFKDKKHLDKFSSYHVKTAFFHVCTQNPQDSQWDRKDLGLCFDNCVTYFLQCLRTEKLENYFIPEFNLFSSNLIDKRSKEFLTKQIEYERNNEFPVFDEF
UniProt Q9QXD6, sequence (whole entry, unmodified, looked up): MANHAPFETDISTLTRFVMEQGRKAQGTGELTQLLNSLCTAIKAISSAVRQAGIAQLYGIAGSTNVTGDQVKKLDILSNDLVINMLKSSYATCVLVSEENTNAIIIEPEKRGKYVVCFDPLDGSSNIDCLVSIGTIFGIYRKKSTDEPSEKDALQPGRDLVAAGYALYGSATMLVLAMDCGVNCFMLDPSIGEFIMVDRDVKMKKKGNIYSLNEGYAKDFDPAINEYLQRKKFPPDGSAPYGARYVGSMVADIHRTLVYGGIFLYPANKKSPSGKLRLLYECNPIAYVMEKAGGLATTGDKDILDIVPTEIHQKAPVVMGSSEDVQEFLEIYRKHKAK

SMILES	tested on	assay	test system	conditions	scale	quantity	value
NC(=O)c1cnc2[nH]ccc2c1N[C@@H]1[C@@H]2CC3C[C@H]1C[C@@](O)(C3)C2		flow cytometry	Japanese healthy men, blood	oral, 10 mg twice daily, 72 h after day 7 dose	baseline: baseline	CD4+ effector memory change	0.42%
Cc1nc(-c2cnc(NC(C)C)n(C)c2=O)ccc1Oc1ccnc(-c2cnn(C)c2)c1	Cytochrome P450 2C19 (CYP2C19, Homo sapiens, UniProt P33261)	metabolism-dependent inhibition, inhibitor		30 min preincubation with NADPH		IC50	> 100 µM
CC(C)C[C@H](NC(=O)C[C@H](O)[C@H](CC(C)C)NC(=O)[C@H](Cc1c[nH]cn1)NC(=O)CNC(=O)[C@@H](NC(=O)[C@H](C)NC(=O)[C@H](Cc1c[nH]c2ccccc12)NC(=O)[C@H](CCC(N)=O)NC(=O)[C@@H](Cc1ccccc1)NC(=O)COCCOCCNC(=O)CCC(C(=O)O)N1CCN(CC(=O)O)CCN(CC(=O)O)CCN(CC(=O)O)CC1)C(C)C)C(N)=O (stereo partly shown) [lutetium-177 labelled]			BALB/c nu/nu mice, liver	intravenous, 750 pmol, 1 h, with: PA 300 µg		tissue uptake	0.4 ± 0.1 %ID/g
Cc1[nH]c(C)c(S(N)(=O)=Nc2ccc(C(F)(F)F)c(Cl)c2)c1C(=O)N1CCC(F)(F)C1 (stereo not shown)	DRD2					IC50	> 100 µM
Cc1nn(-c2nc3c(F)cc(F)cc3s2)c(O)c1C(c1ccc(C(F)(F)F)cc1)c1c(C)nn(-c2nc3c(F)cc(F)cc3s2)c1O	Cyclic GMP-AMP synthase (CGAS, Homo sapiens, UniProt Q8N884)	enzyme activity, inhibitor, pyrophosphatase-coupled		human cGAS		IC50	11.7 µM
Fc1ccc(-c2nc(-c3ccccc3Br)[nH]c2-c2ccncc2)cc1	CSNK1E	inhibitor				IC50	0.0269 ± 0.0035 µM
CC1(C)OC(c2ccc(S(N)(=O)=O)cc2)=C(c2cccc(F)c2)C1=O	Prostaglandin G/H synthase 2 (PTGS2, Homo sapiens, UniProt P35354)	inhibitor				IC50	277 µM
CC(C)C[C@H](NC(=O)C[C@H](O)[C@H](CC(C)C)NC(=O)[C@H](Cc1c[nH]cn1)NC(=O)CNC(=O)[C@@H](NC(=O)[C@H](C)NC(=O)[C@H](Cc1c[nH]c2ccccc12)NC(=O)[C@H](CCC(N)=O)NC(=O)[C@@H](Cc1ccccc1)NC(=O)COCCOCCNC(=O)CCC(C(=O)O)N1CCN(CC(=O)O)CCN(CC(=O)O)CC1)C(C)C)C(N)=O (stereo partly shown) [lutetium-177 labelled]			BALB/c nu/nu mice, female, lumbar lymph node metastases	intravenous, 50 pmol, 24 h		tissue uptake	5 ± 3 %ID/g
Cc1cc(O)cc(C)c1C[C@H](NC(=O)[C@@H]1CCCN1C(=O)[C@H](CCCNC(=N)N)NC(=O)[C@H](CCCNC(=N)N)N(C)C(=O)CNC(=O)[C@@H](CO)NC(=O)CNC(=O)[C@H](Cc1cn(CCNC(=O)[C@H](CC(C)C)NC(=O)[C@H](CC(C)C)NC(=O)C2OC2C(=O)O)nn1)NC(=O)CN1CCN(CC(=O)O)CCN(CC(=O)O)CCN(CC(=O)O)CC1)C(=O)N[C@H](C(=O)N[C@@H](CC(C)C)C(=O)O)C(C)(C)C (mixture of isomers)			human			fraction unbound	0.918
Cc1c(C(=O)N(C)C)c(S(=O)(=O)Nc2ccc(C(F)(F)F)c(Cl)c2)c(C)n1C	DRD2					IC50	> 100 µM
CC(C)Cc1sc(N)nc1-c1ccc(P(=O)(O)O)o1	Fructose-1,6-bisphosphatase 1 (Mus musculus, UniProt Q9QXD6, G27P)	inhibitor, coupled FBPase		mutant G27P, untagged		IC50	~500 µM
Cc1cccc(-c2nc(-c3ccc(/C(N)=N/O)cc3)[nH]c2-c2ccncc2)c1	CSNK1E	inhibitor				IC50	0.295 ± 0.048 µM
Cc1ccc2[nH]nc(-c3nnc(Nc4ccc(F)cc4Cl)s3)c2c1	α-glucosidase	enzyme activity, inhibitor		pH 6.8, with: p-nitrophenyl-α-D-glucopyranoside		IC50	3.9 ± 1.38 µM
O=C(O)CC[C@H](NC(=O)N[C@@H](CCCCNC(=O)[C@H](Cc1ccc2ccccc2c1)NC(=O)CCCCCNC(=O)CN1CCN(CC(=O)O)CCN(CC(=O)O)CCN(CC(=O)O)CC1)C(=O)O)C(=O)O [gallium-68 labelled]		gamma counting	mouse, PC-3 xenograft, heart	intravenous, 3.7 MBq, 2 h		tissue uptake	4.57 ± 0.69 %ID/g
Cc1ccc(NS(=O)(=O)c2c(C)[nH]c(C)c2C(=O)NC2CCCC2)cc1Cl	DRD2					IC50	> 100 µM
Cn1cc(-c2ccc(-c3cncc(Cl)c3N3CCC4(CCNC4=O)CC3)cc2)cn1	COLO 205	gene expression, microarray, measured: CTSV mRNA		concentration not given, 6 h	baseline: untreated cells	log2 fold change	-1.75
CN1CCN(c2ccc(Nc3ncc4cc(C#N)c(=O)n(C5CCCC5)c4n3)cc2)CC1	Ephrin type-A receptor 2 (EPHA2, Homo sapiens, UniProt P29317)					IC50	0.0695 µM
Cc1[nH]c(C)c(S(=O)(=O)Nc2ccc(S(C)(=O)=O)c(Cl)c2)c1C(=O)N1CCC(F)(F)C1	DRD2					IC50	> 100 µM
C[C@]1(c2nc(-c3cccc(N4CCNCC4)n3)no2)CCCc2sc(N)c(C#N)c21	GTPase KRas, with SOS1 (KRAS, Homo sapiens, UniProt P01116)	KRAS wild type-SOS1 interaction, inhibitor, AlphaScreen		geometric mean		IC50	0.461 µM

Some of these lines once more:
SMILES	tested on	assay	test system	conditions	scale	quantity	value
Cc1ccc2[nH]nc(-c3nnc(Nc4ccc(F)cc4Cl)s3)c2c1	α-glucosidase	enzyme activity, inhibitor		pH 6.8, with: p-nitrophenyl-α-D-glucopyranoside		IC50	3.9 ± 1.38 µM
Cc1cccc(-c2nc(-c3ccc(/C(N)=N/O)cc3)[nH]c2-c2ccncc2)c1	CSNK1E	inhibitor				IC50	0.295 ± 0.048 µM
